Experimental data from different studies.
Numbered parts are unrelated; each lists some results of a single study. Several values in a cell are separate wells, animals, samples, runs or records.
Chain of UniProt P29320 (whole entry, looked up): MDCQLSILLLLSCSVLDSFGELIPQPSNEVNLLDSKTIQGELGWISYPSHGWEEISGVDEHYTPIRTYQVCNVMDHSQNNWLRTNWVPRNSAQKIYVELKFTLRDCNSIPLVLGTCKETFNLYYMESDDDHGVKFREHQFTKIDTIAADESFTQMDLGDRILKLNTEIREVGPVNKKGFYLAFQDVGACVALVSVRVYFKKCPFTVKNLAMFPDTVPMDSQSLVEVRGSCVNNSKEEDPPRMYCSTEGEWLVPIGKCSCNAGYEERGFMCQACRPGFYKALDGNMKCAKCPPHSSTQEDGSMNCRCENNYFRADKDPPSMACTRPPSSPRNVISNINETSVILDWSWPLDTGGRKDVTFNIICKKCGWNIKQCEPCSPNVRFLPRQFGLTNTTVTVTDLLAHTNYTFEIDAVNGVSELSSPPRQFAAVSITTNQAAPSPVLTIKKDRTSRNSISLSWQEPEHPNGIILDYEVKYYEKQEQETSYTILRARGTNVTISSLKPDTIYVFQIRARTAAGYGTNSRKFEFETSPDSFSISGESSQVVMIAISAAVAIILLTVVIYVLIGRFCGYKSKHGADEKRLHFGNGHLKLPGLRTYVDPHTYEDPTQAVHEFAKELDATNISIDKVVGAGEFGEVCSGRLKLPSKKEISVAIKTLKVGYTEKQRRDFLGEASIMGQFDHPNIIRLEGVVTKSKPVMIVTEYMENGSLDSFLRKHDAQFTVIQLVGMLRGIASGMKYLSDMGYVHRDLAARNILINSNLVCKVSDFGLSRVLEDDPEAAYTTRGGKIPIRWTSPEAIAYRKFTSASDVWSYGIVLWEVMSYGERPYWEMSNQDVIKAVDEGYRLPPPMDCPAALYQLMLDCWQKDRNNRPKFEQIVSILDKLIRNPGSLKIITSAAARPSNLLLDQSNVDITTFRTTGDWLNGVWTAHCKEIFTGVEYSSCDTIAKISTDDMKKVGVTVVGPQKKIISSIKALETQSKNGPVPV
Chain of UniProt P49759 (whole entry, looked up): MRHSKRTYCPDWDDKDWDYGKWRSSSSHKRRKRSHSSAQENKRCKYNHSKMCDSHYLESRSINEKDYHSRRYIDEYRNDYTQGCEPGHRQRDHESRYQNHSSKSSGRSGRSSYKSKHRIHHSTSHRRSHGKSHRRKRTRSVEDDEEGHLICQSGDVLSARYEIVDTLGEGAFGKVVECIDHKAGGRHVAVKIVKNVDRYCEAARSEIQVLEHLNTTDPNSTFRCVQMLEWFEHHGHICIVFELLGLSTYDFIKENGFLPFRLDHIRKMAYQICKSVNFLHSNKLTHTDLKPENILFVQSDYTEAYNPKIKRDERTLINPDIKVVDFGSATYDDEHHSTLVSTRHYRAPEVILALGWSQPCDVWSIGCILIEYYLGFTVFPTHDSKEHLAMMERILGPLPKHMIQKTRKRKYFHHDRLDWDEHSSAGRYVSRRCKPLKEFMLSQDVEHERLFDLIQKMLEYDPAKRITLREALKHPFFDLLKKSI

Series 1
SMILES: C[C@@H]1CN(c2ccc(-c3cc(C(=O)NCCOCCOCCOCCOCCNC(=O)Cn4cc(-c5[nH]cc(C(=O)N[C@@H](CC(N)=O)c6ccc(F)c(Cl)c6)c5-c5ccc(Cl)cc5F)cn4)ccc3F)cc2NC(=O)c2c[nH]c(=O)cc2C(F)(F)F)C[C@H](C)N1C
Effect on: thermal unfolding
Technique: differential scanning fluorimetry
Tested at: 5.5 µM
Reading: higher = more unfolded
WDR5: WD repeat-containing protein 5 (WDR5, Homo sapiens, UniProt P61964)
DCAF1: DDB1- and CUL4-associated factor 1 (DCAF1, Homo sapiens, UniProt Q9Y4B6)
Chain of UniProt Q9Y4B6 (whole entry, looked up): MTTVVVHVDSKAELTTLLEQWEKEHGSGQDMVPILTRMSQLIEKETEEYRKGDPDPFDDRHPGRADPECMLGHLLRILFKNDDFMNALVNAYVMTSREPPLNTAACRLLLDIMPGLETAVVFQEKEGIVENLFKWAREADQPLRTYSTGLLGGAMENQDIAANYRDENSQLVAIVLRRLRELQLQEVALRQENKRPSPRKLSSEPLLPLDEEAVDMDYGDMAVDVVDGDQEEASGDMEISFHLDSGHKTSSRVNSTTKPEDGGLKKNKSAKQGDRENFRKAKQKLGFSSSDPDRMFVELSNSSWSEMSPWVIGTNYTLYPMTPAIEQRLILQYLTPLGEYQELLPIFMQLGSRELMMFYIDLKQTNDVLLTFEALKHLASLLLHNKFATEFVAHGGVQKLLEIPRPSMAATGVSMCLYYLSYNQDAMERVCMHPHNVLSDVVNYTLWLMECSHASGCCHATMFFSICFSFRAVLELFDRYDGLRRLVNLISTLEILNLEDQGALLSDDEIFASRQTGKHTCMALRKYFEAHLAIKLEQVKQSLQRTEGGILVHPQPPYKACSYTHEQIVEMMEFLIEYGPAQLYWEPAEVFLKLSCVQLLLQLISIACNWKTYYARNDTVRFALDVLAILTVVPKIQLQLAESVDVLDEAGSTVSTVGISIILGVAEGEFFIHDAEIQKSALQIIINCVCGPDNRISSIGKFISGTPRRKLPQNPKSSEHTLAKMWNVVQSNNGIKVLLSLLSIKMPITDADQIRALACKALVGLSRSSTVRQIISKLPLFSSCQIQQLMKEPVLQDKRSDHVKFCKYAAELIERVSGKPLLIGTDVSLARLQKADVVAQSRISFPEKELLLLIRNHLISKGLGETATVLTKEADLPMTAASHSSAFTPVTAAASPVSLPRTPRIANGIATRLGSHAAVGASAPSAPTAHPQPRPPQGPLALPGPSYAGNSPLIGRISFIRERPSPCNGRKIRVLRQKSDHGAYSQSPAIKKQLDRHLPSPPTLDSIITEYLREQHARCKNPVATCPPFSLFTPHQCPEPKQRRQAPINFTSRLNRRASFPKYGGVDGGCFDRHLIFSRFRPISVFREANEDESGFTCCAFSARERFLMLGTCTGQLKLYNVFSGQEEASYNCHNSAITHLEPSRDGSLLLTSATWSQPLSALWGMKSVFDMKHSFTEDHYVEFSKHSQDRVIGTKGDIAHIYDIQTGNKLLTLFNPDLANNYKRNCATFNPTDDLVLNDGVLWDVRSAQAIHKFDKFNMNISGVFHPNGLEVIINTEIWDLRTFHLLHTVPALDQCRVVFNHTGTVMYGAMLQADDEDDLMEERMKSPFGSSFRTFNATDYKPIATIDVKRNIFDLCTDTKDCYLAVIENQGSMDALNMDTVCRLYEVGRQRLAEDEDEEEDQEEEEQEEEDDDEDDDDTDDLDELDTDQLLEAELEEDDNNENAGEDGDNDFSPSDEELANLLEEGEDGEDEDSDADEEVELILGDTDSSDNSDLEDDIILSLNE
WDR5; 38.2 °C — “SYPRO Orange fluorescence”: 14400 a.u.
For DCAF1; 61.01 °C: “SYPRO Orange fluorescence” read 43100 a.u.
DCAF1; 84.61 °C — “SYPRO Orange fluorescence”: 40200 a.u.
For DCAF1; 32.4 °C: “SYPRO Orange fluorescence” read 8240 a.u.
The “SYPRO Orange fluorescence” was 14500 a.u. (WDR5; 48.4 °C).
It gave 14300 a.u. for “SYPRO Orange fluorescence” (WDR5; 36.8 °C).
It gave 41100 a.u. for “SYPRO Orange fluorescence” (WDR5; 85.81 °C).

Series 2
Compound: CN(C1COC1)C(C)(C)/C=C(\C#N)C(=O)N1CCC[C@H]1Cn1nc(-c2ccc(Oc3ccccc3)cc2F)c2c(N)ncnc21
Effect on: kinase activity
The inhibition was 12% (FLT3 (Homo sapiens, UniProt P36888); 0.1 µM).
It gave 4% for inhibition (EGFR (Homo sapiens, UniProt P00533); 0.1 µM).
For IKBKB (Homo sapiens, UniProt O14920); 1 µM: inhibition read -6%.
The inhibition was 1% (FLT1 (Homo sapiens, UniProt P17948); 1 µM).
The inhibition was 7% (CSNK1G3 (Homo sapiens, UniProt Q9Y6M4); 0.1 µM).
For LATS2 (Homo sapiens, UniProt Q9NRM7); 0.1 µM: inhibition read 3%.
CHUK (Homo sapiens, UniProt O15111); 0.1 µM — inhibition: -1%.
It gave 4% for inhibition (CLK1 (Homo sapiens, UniProt P49759); 1 µM).
It gave 67% for inhibition (YES1 (Homo sapiens, UniProt P07947); 1 µM).
LTK (Homo sapiens, UniProt P29376); 1 µM — inhibition: 1%.
For PLK2 (Homo sapiens, UniProt Q9NYY3); 1 µM: inhibition read 3%.
RPS6KB1 (Homo sapiens, UniProt P23443); 0.1 µM — inhibition: 3%.
The inhibition was 4% (EPHA3 (Homo sapiens, UniProt P29320); 0.1 µM).
It gave 8% for inhibition (ZAP70 (Homo sapiens, UniProt P43403); 0.1 µM).
The inhibition was -12% (IKBKE (Homo sapiens, UniProt Q14164); 1 µM).

Series 3
SMILES: NCc1ccc(Cn2cc(Cc3cc(N)nc4[nH]nnc34)cn2)cc1
Target: Myeloperoxidase (MPO, Homo sapiens, UniProt P05164)
Chain of UniProt P05164 (whole entry, looked up): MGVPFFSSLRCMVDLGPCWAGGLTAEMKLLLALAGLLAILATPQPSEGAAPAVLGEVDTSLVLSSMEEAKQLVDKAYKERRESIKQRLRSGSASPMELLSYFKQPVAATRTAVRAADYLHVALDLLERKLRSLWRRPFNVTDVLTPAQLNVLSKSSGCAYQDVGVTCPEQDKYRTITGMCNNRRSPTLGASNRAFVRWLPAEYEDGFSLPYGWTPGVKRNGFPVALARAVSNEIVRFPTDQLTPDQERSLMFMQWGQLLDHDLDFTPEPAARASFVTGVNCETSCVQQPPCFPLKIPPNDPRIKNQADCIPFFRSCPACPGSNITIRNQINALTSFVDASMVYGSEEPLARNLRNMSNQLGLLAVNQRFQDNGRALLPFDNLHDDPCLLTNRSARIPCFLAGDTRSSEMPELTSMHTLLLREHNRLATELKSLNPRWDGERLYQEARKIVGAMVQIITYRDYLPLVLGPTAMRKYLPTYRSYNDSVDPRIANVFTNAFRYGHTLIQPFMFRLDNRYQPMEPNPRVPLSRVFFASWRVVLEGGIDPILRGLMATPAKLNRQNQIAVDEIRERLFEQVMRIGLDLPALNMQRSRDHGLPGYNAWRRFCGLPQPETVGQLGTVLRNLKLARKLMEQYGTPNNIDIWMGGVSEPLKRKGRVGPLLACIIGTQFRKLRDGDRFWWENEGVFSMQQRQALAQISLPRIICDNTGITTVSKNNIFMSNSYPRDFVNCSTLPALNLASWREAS
H2O2 consumption, Amplex Red; 1.111 µM — inhibition: 98.6%.
It gave 100% for inhibition (enzyme activity, inhibitor, fluorescence; 10 µM).
It gave 96.7% for inhibition (enzyme activity, inhibitor, fluorescence; 0.3704 µM).
For H2O2 consumption, Amplex Red; 0.1235 µM: inhibition read 90.9%.
The inhibition was 97.4% (H2O2 consumption, Amplex Red; 0.3704 µM).
H2O2 consumption, Amplex Red; 0.0005 µM — inhibition: -7.6% and 7.02%.
enzyme activity, inhibitor, fluorescence; 1.111 µM — inhibition: 99.4%.
It gave 91.5% for inhibition (enzyme activity, inhibitor, fluorescence; 0.1235 µM).

Series 4
Target: E3 ubiquitin-protein ligase NEDD4, HECT domain (Homo sapiens, UniProt P46934)
Effect on: enzyme activity
Mode: inhibitor
Technique: Ub-TR-FRET
Medium: HECT domain
Tested at: 33.33 µM
Reading: higher = more chain formation
Target sequence (P46934 938-1319, limits assumed): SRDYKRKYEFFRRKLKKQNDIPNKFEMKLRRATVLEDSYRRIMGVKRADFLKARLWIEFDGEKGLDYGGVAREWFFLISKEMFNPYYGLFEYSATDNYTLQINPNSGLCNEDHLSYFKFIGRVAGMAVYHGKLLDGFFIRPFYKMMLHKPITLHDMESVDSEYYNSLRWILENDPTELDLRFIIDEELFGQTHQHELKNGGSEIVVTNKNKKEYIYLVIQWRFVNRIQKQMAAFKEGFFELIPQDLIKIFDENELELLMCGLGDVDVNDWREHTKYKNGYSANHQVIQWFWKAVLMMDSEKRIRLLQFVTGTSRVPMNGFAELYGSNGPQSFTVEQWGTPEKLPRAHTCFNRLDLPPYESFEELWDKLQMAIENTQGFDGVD
Under “ubiquitin chain formation AUC”, `CCOC(=O)/C=C/CNCCCCN1c2cc(Cl)ccc2CCc2cnn(C)c21.O=C(O)/C=C\C(=O)O` is recorded as 12000 a.u. and 6640 a.u. and 6780 a.u. and 7480 a.u. and 12100 a.u. and 11700 a.u.
`CCOC(=O)/C=C/CN(CCCCN1c2ccccc2CCc2ccc(Cl)cc21)C(C)C.O=C(O)/C=C\C(=O)O` — result for “ubiquitin chain formation AUC”: 11700 a.u. and 11500 a.u. and 11000 a.u. and 14900 a.u. and 15800 a.u. and 14800 a.u.
`CNC(=O)/C=C/CNCCCCN1c2ccccc2CCc2ccc(Cl)cc21.Cl` — result for “ubiquitin chain formation AUC”: 21400 a.u. and 29800 a.u. and 19900 a.u. and 39200 a.u. and 30300 a.u. and 23400 a.u.
Under “ubiquitin chain formation AUC”, `COC(=O)CCCNCCCN1c2ccccc2CCc2ccc(Cl)cc21.COC(=O)CCCNCCCN1c2ccccc2CCc2ccc(Cl)cc21.O=C(O)/C=C/C(=O)O` is recorded as 99700 a.u. and 91800 a.u. and 98500 a.u.
Under “ubiquitin chain formation AUC”, `CONC(=O)/C=C/CNCCCCN1c2ccccc2CCc2ccc(Cl)cc21.O=C(O)/C=C\C(=O)O` is recorded as 7260 a.u. and 6580 a.u. and 6860 a.u. and 5970 a.u. and 5960 a.u. and 6350 a.u.
`CC(C)ONC(=O)/C=C/CNCCCCN1c2ccccc2CCc2ccc(Cl)cc21.O=C(O)/C=C\C(=O)O` — result for “ubiquitin chain formation AUC”: 5560 a.u. and 5400 a.u. and 5240 a.u. and 5440 a.u. and 5210 a.u. and 5490 a.u.
`CCOC(=O)/C=C/CNCCCCN1c2cc(Cl)ccc2C(=O)N(C)c2ccccc21.O=C(O)/C=C\C(=O)O` — result for “ubiquitin chain formation AUC”: 8320 a.u. and 8180 a.u. and 8770 a.u.

For quick reference, copied from above (series 2):
For IKBKB (Homo sapiens, UniProt O14920); 1 µM: inhibition read -6%.
The inhibition was 1% (FLT1 (Homo sapiens, UniProt P17948); 1 µM).
The inhibition was 7% (CSNK1G3 (Homo sapiens, UniProt Q9Y6M4); 0.1 µM).
For LATS2 (Homo sapiens, UniProt Q9NRM7); 0.1 µM: inhibition read 3%.
